# Measurements collected from several papers.
# Compare with care: the assays were run in different laboratories. Numbers after ± are the reported error.
SMILES,organism,assay,system,conditions,EC50 [nM]
C=C(C)[C@@H]1CC[C@]2(C(N)=O)CC[C@]3(C)[C@H](CC[C@@H]4[C@@]5(C)CCCNC(C)(C)[C@@H]5CC[C@]43C)[C@@H]12,Human cytomegalovirus,cytopathic effect,"HFF, AD169",,> 1200
Nc1ncnc2c1c(-c1ccc(O)cc1)cn2[C@@H]1O[C@H](CO)[C@@H](O)[C@H]1O,Trichomonas vaginalis,resorufin,"G3, metronidazole-sensitive","24 h + 2 h, 2% O2",150 ± 30
C[N+](C)(CC(=O)Nc1cccc(C(F)(F)F)c1)CC(=O)Nc1cccc(C(F)(F)F)c1,Zika virus,"viral replication, inhibitor, luciferase",Huh-7,,22
COc1ccc(-n2nc3c(=O)n(Cc4cccc(NC(C)=O)c4)nc(C)c3c2C)cc1,Zika virus,"viral replication, immunofluorescence","Vero, MR766",24 h,124000 ± 4600
Cc1ccc(-c2cn([C@@H]3O[C@H](CO)[C@@H](O)[C@H]3O)c3ncnc(N)c23)cc1F,Trichomonas vaginalis,resorufin,"G3, metronidazole-sensitive","24 h + 2 h, 2% O2",360 ± 20
CCOC(=O)[C@@H](C)NP(=O)(CO[C@H](CF)Cn1cnc(N)nc1=O)N[C@H](C)C(=O)OCC,human cytomegalovirus,cytopathic effect,"HEL, Davis",,> 100000
C=C(C)[C@@H]1CC[C@]2(CO)CC[C@]3(C)[C@H](CC[C@@H]4[C@@]5(C)CCCNC(C)(C)[C@@H]5CC[C@]43C)[C@@H]12,Human cytomegalovirus,cytopathic effect,"HFF, AD169",,150
Cc1n[nH]c(=O)c2nn(-c3ccccc3)c(C)c12,Zika virus,"viral replication, immunofluorescence","Vero, MR766",24 h,697500 ± 4900
CC1(CCCCCCCCCCCCCCOCCCOP(=O)(O)CO[C@H](CO)Cn2ccc(N)nc2=O)COC1,JC polyomavirus,qPCR,"COS-7, MAD-4",7 days,> 25500
Nc1ncnc2c1c(-c1ccc(F)c(Cl)c1)cn2[C@@H]1O[C@H](CO)[C@@H](O)[C@H]1O,Trichomonas vaginalis,resorufin,"G3, metronidazole-sensitive","24 h + 2 h, 2% O2",340 ± 62
Nc1ccn(C[C@@H](CO)OCP(=O)(O)OCCCS(=O)(=O)CCCCCCCCCCC2CCC2)c(=O)n1,JC polyomavirus,qPCR,"COS-7, MAD-4",7 days,75 ± 7
Nc1ncnc2c1c(-c1ccccc1Cl)cn2[C@@H]1O[C@H](CO)[C@@H](O)[C@H]1O,Trichomonas vaginalis,resorufin,"G3, metronidazole-sensitive","24 h + 2 h, 2% O2",9600 ± 300
Cc1nn(Cc2cccc(NC(=O)c3ccccc3)c2)c(=O)c2nn(-c3ccccc3)c(C)c12,Zika virus,"viral replication, immunofluorescence","Vero, MR766",24 h,140000 ± 13700
CC1=C[C@H](O/C=C2/C(=O)O[C@@H]3c4ccccc4C[C@H]23)OC1=O,Phelipanche ramosa,seed germination,,,0.0065
Nc1ncnc2c1c(-c1ccc(Cl)c(Cl)c1)cn2[C@H]1C[C@H](O)[C@@H](CO)O1,Trichomonas vaginalis,resorufin,"G3, metronidazole-sensitive","24 h + 2 h, 2% O2",420 ± 57
CCOC(=O)[C@@H](C)NP(=O)(CO[C@H](CF)CN1CNC(N)=NC1=O)N[C@H](C)C(=O)OCC,human cytomegalovirus,cytopathic effect,"HEL, Davis",,> 100000
O=C(Nc1cc2nc(-c3cccc(C(F)(F)F)c3)cn2cn1)N1CC[C@H](F)C1,Trypanosoma cruzi,,"3T3 host cells, Tulahuen beta-galactosidase",6 days,80
CC1(C)CC[C@]23CC[C@]4(C)[C@H](CC[C@@H]5[C@@]6(C)CCCNC(C)(C)[C@@H]6CC[C@]54C)[C@H]2[C@H]1OC3,Human cytomegalovirus,cytopathic effect,"HFF, AD169",,> 30000
Cc1ccc2nc(-c3ccccc3)c(CN3CCN(c4cccc(Cl)c4Cl)CC3)n2c1,Trypanosoma cruzi,,"3T3 host cells, Tulahuen beta-galactosidase",6 days,3310
CC1(C)NCCC[C@]2(C)[C@H]3CC=C4[C@@H]5C[C@@](C)(CO)CC[C@]5(C)CC[C@@]4(C)[C@]3(C)CC[C@@H]12,Human cytomegalovirus,cytopathic effect,"HFF, AD169",,110
CCOC(=O)c1c(C(C)C)oc2nc(N3CCOCC3)ccc12,Trypanosoma cruzi,,"3T3 host cells, Tulahuen beta-galactosidase",6 days,4810
COc1ccc(S(=O)(=O)NCc2c[nH]nc2-c2cccs2)cc1,Plasmodium falciparum,"parasite growth, SYBR Green",3D7,"72 h, blood stage",490
O=C1C=C[C@H](O/C=C2/C(=O)O[C@@H]3c4ccccc4C[C@H]23)O1 (racemic),Phelipanche ramosa,seed germination,,,0.45
Nc1ncnc2c1c(-c1ccc(F)c(F)c1)cn2[C@@H]1O[C@H](CO)[C@@H](O)[C@H]1O,Trichomonas vaginalis,resorufin,"G3, metronidazole-sensitive","24 h + 2 h, 2% O2",250 ± 25
O=C(Nc1cc2nc(-c3ccccc3)cn2cn1)Oc1ccc([N+](=O)[O-])cc1,Trypanosoma cruzi,,"3T3 host cells, Tulahuen beta-galactosidase",6 days,> 20000
CC1(C)CC[C@]2(CO)CC[C@]3(C)C(=CC[C@@H]4[C@@]5(C)CCCNC(C)(C)[C@@H]5CC[C@]43C)[C@@H]2C1,Human cytomegalovirus,cytopathic effect,"HFF, AD169",,> 1200
COc1ccc(-n2nc3c(=O)n(Cc4cccc(NC(=O)c5ccccc5)c4)nc(C)c3c2C)cc1,Zika virus,"viral replication, immunofluorescence","Vero, MR766",24 h,300000 ± 6500
C=C(C)[C@@H]1CC[C@]2(C(=O)NC(CO)Cc3ccccc3)CC[C@]3(C)[C@H](CC[C@@H]4[C@@]5(C)CCCNC(C)(C)[C@@H]5CC[C@]43C)[C@@H]12 (stereo partly shown),Human cytomegalovirus,cytopathic effect,"HFF, AD169",,> 1200
CC1CCN(Cc2cc(/C=C/C(=O)c3ccc(F)cc3)ccc2O)CC1,Plasmodium knowlesi,parasite growth,,"24 h, blood stage",12000
Nc1ccn(C[C@@H](CO)OCP(=O)(O)OCCCS(=O)(=O)CCCCCCCCCCCCCC2CCC2)c(=O)n1,JC polyomavirus,qPCR,"COS-7, MAD-4",7 days,70 ± 50
COc1ccccc1-c1n[nH]c2nc(N[C@H]3CC[C@H](NS(=O)(=O)CC(C)C)CC3)ncc12,Leishmania donovani,parasite growth,THP-1,"intracellular, amastigote",14
COC(=O)c1cccc(-n2nc(C)c3c(C)n(-c4ccccc4)nc3c2=O)c1,Zika virus,"viral replication, immunofluorescence","Vero, MR766",24 h,218000 ± 3800
Cc1ccc(-c2cn([C@H]3C[C@H](O)[C@@H](CO)O3)c3ncnc(N)c23)cc1,Trichomonas vaginalis,resorufin,"G3, metronidazole-sensitive","24 h + 2 h, 2% O2",650 ± 340
O=C(Nc1cc2nc(-c3ccccc3)cn2cn1)Oc1ccccc1,Trypanosoma cruzi,,"3T3 host cells, Tulahuen beta-galactosidase",6 days,> 20000
O=C1OC2(c3ccccc31)c1cc(I)c(O)c(I)c1Oc1c2cc(I)c(O)c1I,Zika virus,"viral replication, plaque reduction","A549, PRVABC59",,620
CCOC(=O)c1c(C)oc2nc(N3CC[C@H](F)C3)ccc12,Trypanosoma cruzi,,"3T3 host cells, Tulahuen beta-galactosidase",6 days,17300
COC(=O)c1cccc(-n2nc(C)c3c(C)n(-c4ccc(OC)cc4)nc3c2=O)c1,Zika virus,"viral replication, immunofluorescence","Vero, MR766",24 h,161000 ± 9100
CCc1ccc(-c2cn([C@@H]3O[C@H](CO)[C@@H](O)[C@H]3O)c3ncnc(N)c23)cc1,Trichomonas vaginalis,resorufin,"G3, metronidazole-sensitive","24 h + 2 h, 2% O2",190 ± 37
CCOC(=O)c1c(C)oc2ncc(N3CC[C@H](F)C3)cc12,Trypanosoma cruzi,,"3T3 host cells, Tulahuen beta-galactosidase",6 days,18900
COc1ccc(-n2nc3c(=O)[nH]nc(C)c3c2C)cc1,Zika virus,"viral replication, immunofluorescence","Vero, MR766",24 h,39100 ± 1800
